# Measured values of several laboratories.
# A part holds a random share of what one study measured.

# Block 1
# Target: RNA binding protein fox-1 homolog 2, RRM domain, GST-SBP tag (RBFOX2, Homo sapiens, UniProt O43251-10, residues 100-194)
# Method: RNA Bind-n-Seq
# Form: RNA
# Matrix: in vitro
# Tested at: 365 nM
# Setting: natural RNA segment, single round, ends assumed
# Baseline: no-protein control
# Reading: higher = stronger binding
# All sequences stand within: GGGAGUUCUACAGUCCGACGAUC … UGGAAUUCUCGGGUGCCAA
# Residues (chain): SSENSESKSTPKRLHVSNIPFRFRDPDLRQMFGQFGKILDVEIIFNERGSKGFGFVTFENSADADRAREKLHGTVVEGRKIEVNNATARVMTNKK
Strand,RBNS enrichment (R)
AUUUCAGAAGAAAUCGAGGGCACAGGCCCUCACUUUUCUUCUUUUGACGCAUCAUCCUGUGAUGUUGAAAUGUCAAUUGCAGGAUGCUGAUGUUGUGCACGUCAAUCACC,0.504
UUAAAGACAGUCCAGAGCUUUUCAGUUGAUUCGUCUCCUAUCCUGUGUAAAUAUUUUCCUCUCAGGGCAGGGGAAAGAGGACAGAGAAAGGAGCUGGUAGAAGCAGAGAG,0.51
CCUGGGGACUGCUGCUGUCCUGCCCUUGUAAGCCAUGGCUGAUCACUUUUGGUCAAUAUGUCAAAAUUCGGGGUCCACGCCAGGCUUGGGGGGCUUGGGAGUGUUUGUCA,0.443
AGUAAUGGGAUCACCUCACCAUGCCAUGCUCUGGGCUCUCCCUCUCUGUCCAUUUCUGUUUUGCUUUCCUGGCUAAACCCAUCUACCAUUCUUAACACUGGUAGCUCCUG,0.707
ACCAAGUCCAGAUUUGUGUGUAAGCAGCUGGGUGCCUGGGGCCUCUCGUGCACACUGGAUUGGUUUCUCAGUUGCUGGGCGAGCCUGUACUCUGCCUGACGAGGAACGCU,0.931
UGGCAUAUCUUUGUUUGAAGUUUGUUGGUGAUUCCACCAAACUGGUGUAAAAAACAAAAACAAAAAAACCCACAAACCACCCAAAACUCACAAAAAAAAUCCUGCUUGUA,1.14
GAAACAGGCCCAGAAGAACCUCAGGAGUAACCCUGGGCAUUCCUCCCCUACCCAUUUUCUCUGGAGGUGUCCAGCCUCUUCCAACCCCCUCCCCAACUCUAGGGGAGAGC,0.341
UACAGGGCCCAUGCAAGUCCGAAAUCCAGCAGGGCUGUCAAAUUUUAAAGUUCCAGAAUAAUCUCCUUUGACUCCAGGUCUCACAUCCAGGUCAUACUGAUGCAAGAAGU,0.255
CUUGAAGAAAGGCAGUGUCCCCGAGUCACACAGCACAGCAGGUAGCAUCAACUAGAGCUAGUUAAUGUGUGUUGUUUUGCUCUUGGGAUCGAGACUUCAGUUUCCAAUGU,1.99
CUCUAUGUUAAAAUGCCAAAAAUGACCCAGUCUGUCGCUUUCCUCCGCCCCAGCGCUUCACAGCCGCUUCUGGCUUUGCAAGGUGUCUGUCUCGGCCAGUGCCGUGGCCU,0.327
CCUGGCUUGUUGAAAGGUGGCUUUAGCUGUGUGCUGUGUACCUGCUUACGUGGCCUGCUGUCCUCUGUGUGAUUAGGAGGGUUUCUGCUGGCCCUGCAGCUUGCUUCCCU,0.511
ACAGUGGUAAAAACCAAACUACCUUGAAUUUUUUUAAGGCAACUUAUGAAUAAUGCUCAUUUUCACAGUCAGAAUAGCUUUAAAAUAUGGUUGAAUUUGAUACACACAGG,0.42

# Block 2
# Target: Centromere-binding protein 1, full length, His-tagged (CBF1, Saccharomyces cerevisiae, UniProt P17106, residues 1-351)
# Chain of UniProt P17106 (whole entry, looked up): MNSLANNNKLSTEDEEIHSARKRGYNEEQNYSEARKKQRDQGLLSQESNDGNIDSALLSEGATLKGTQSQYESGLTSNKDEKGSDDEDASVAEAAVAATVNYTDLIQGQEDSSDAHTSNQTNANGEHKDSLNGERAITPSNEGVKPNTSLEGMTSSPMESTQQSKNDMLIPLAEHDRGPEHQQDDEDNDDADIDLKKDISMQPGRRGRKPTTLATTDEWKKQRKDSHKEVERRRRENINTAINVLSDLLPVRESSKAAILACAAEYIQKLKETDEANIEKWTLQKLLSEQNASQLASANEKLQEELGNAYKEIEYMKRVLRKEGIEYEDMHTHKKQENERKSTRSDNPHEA
# Method: competition protein-binding microarray
# Form: double-stranded DNA, one strand shown
# Matrix: in vitro
# Tested at: 2 µM
# Setting: whole 60-bp probe, lowest competitor level
# With: Pho4 competitor, 0.05 µM
# Reading: higher = stronger binding
# All sequences stand within: … GTCTTGATTCGCTTGACGCTGCTG
Strand,fluorescence intensity
AAAGCGGTAATTTGACAAGTGGGTGCAGATATCTAT,71.5 a.u.
GAAGATTGGGTCTGCGTTGTGACGGAAGTGCCAGAT,62.8 a.u.
CACTGAGTACTTCCTCACCTGATCCAATCGATTTAA,241 a.u.
CTTTCCCGATCTTTTCACGTGTCGTTAGCACATTTG,919 a.u.
TTCCGCAGGTTTATCAACGTGTTTCACTTATATCGG,96.7 a.u.
TGCGCAACAACTTGCCAGGTGGGTGTATGTCTAGAA,55.3 a.u.
GCTTTCCCAGCGATGCTCGTGTGGAGGACCGAACAT,62.7 a.u.
AAAGCGGTAATTTGGCGCGTGGGTGCAGATATCTAT,88.8 a.u.
AAATTACTAAGTTTTCACGTGGATTACCCCGTATGA,723 a.u.
TTACCCAGCGATCCGCCCGTGAGGTGATGCGCAAAA,64.5 a.u.
TTGCAATACACTCGGCACGCACTTTATCACTGGGCT,78.7 a.u.
CACCGTCCTATTCGTCACGCTCCAGGCAGAGACATG,161 a.u.
AAATTACTAAGTTGCACAGTGGGTGACGCCGTATGA,70 a.u.
CTAACGAAGGTTTGTCACCTTACTTACAAGCCAAGT,77.8 a.u.
ACAAGTGCTTTAAATGATGTGACGGGTTATTCTGGA,86.5 a.u.
AAATTACTAAGTTGGAAAGTGGGTGACGCCGTATGA,63 a.u.
CGTCCTAGTGATTGCTAGGTGGGTGCCATGAGGAAG,76.2 a.u.
CTTTCCCGATCTTGCCGGGTGGGTGTAGCACATTTG,65.3 a.u.
TTGAACATAGAAGACCGCGTGATGGATTTTAGTGCG,312 a.u.
TTGGGGCAGATACTTCGTGTGACAGTGGCCAATTCA,62.5 a.u.
TAAGGAAAAACTCACCACGTTCTTCTGAACATGTTC,96.7 a.u.
GTCTTGTCTCATTGCGCAGTGGGTGTCCCCACTTCA,72.2 a.u.

# Block 3
# Organism: Saccharomyces cerevisiae
# Observed: binding
# Method: competitive growth deep sequencing
# Form: peptide
# Strain: cyclin E1-Cln2 fusion strain
# Tested at: concentration not given
# Setting: peptide tiling library
# Reading: direction not given
Molecule,growth enrichment score
GPVKLEFDVSDGAT,0.233
VSRNLRSSLKSSLHTL,0.0404
ELGMEHCEKFEISETS,1.05
ISRLFPPRTPGWHQLQ,0.253
NESHLDKEHDAVEVAD,0.671
EHCRVLFLDHVMYTIH,0.261
AGSAKRRLFGEDPPKE,3.54
YLYLLLTQSLWCRV,0.676
RTEALEQGGLPKKLIF,0.638
RRRRLLFWDKETQI,0.538
NLEPNAEFDKRTEFIT,0.623
NRLLKLFTRCLTPLVP,-0.0273
LAKRALKYTD,-0.242
SFLIEYEFLIPPSLKP,1.63
KVRRNLFNQELLSP,1.73
HRRRLLFACSPPPASQ,0.536
SPREGHMMDALYAQVK,1.21
PPTFLSTGEIHAFLSS,0.538
ATNSSHTDAHEILVSD,0.276

# Block 4
# Target: Interferon regulatory factor 5, full length, phosphomimetic (IRF5, Homo sapiens, UniProt Q13568-2, residues 1-514, K96S/S451D/S453D/S456D/S462D)
# Method: protein-binding microarray
# Form: double-stranded DNA, one strand shown
# Matrix: in vitro
# Tested at: 250 nM
# Setting: 60-bp whole probe
# With: salmon DNA 0.4 mg/ml
# Baseline: random background probes
# Reading: higher = stronger binding
# All sequences stand within: GCCTAGCAC … GTCTTGATTCGCTTGACGCTGCTG
Strand,log fluorescence
TTAGGAATGGGACTGGGTTAGTGCTAG,-0.406 z-score
TTGCTTGTGTTTATTGTGACGTGCTAG,0.457 z-score
TTAGGACTTCTTCTCCTTTAGTGCTAG,0.059 z-score
TTAGGTTTACTTCTCCTTTAGTGCTAG,0.357 z-score
GAAGCCAGCTCTTTCGTTACGTGCTAG,3.98 z-score
TTAGGACGGGGTCTCGGTTAGTGCTAG,-0.216 z-score
GACGGTATCGGGACCGGGGACGTGCTA,1.19 z-score
ATTTTTTTCTAATTGAAATGGTGCTAG,1.13 z-score
TCACCGTTTCTTCTAGAACTGTGCTAG,0.667 z-score
TTAGGTCCCCTTCTCCTTTAGTGCTAG,-0.104 z-score
TCACATCTAGTTCTGCTACTGTGCTAG,0.273 z-score
ATATTGATGGCTCTCTGGACGTGCTAG,0.0227 z-score
TTAGGTTTCCTACCGCTTTAGTGCTAG,0.377 z-score
GACGATTTCAGTATCGAAACGTGCTAG,6.55 z-score
ATAGGTTCCCTTTTCCTTTAGTGCTAG,0.619 z-score
GACGTTATCGGGTTTCGAGACGTGCTA,3.61 z-score
GACGGAGTGGGTTTCGGGACGTGCTAG,2.15 z-score
TCATCTTGCAGTATGGAACTGTGCTAG,0.0692 z-score
GACGGTATCGACACAGGGGACGTGCTA,2 z-score
TCAGTTTTCATTTTCTGACTGTGCTAG,3.1 z-score

# For quick reference, copied from above (block 2):
Strand,fluorescence intensity
CACTGAGTACTTCCTCACCTGATCCAATCGATTTAA,241 a.u.
CTTTCCCGATCTTTTCACGTGTCGTTAGCACATTTG,919 a.u.
TTCCGCAGGTTTATCAACGTGTTTCACTTATATCGG,96.7 a.u.
TGCGCAACAACTTGCCAGGTGGGTGTATGTCTAGAA,55.3 a.u.
